Experimental data of several laboratories.
Compare with care: the assays were run in different laboratories. ± gives the spread as reported.

With CN(C)c1ccc(C(=C2C=CC(=[N+](C)C)C=C2)c2ccc(N(C)C)cc2)cc1 the IC50 was 0.319 µM (Plasmodium falciparum; parasite proliferation, SYBR Green; 3D7; 72 h).
With CC(C)C12C=CC(C)(CC1)OO2 (stereo not drawn) the IC50 was 175 ± 83.4 µM (Leishmania tarentolae; viability, resazurin; promastigotes, Schneider's medium; 48 h, 26 °C, added: 10% FCS).
For `guanidine hydrochloride`, the IC50 was 423 µM (Coxsackievirus B3; CPE inhibition; HeLa, Nancy; 48 h).
For O=C(NC(=O)c1c(F)cccc1F)Nc1ccc(Cl)cc1, the IC50 was 0.23 µg (Lucilia cuprina; larval weight gain; LS strain, larvae on impregnated cotton wool; 24 h).
CCCCCCC(F)(P(=O)(O)O)P(=O)(O)O has an IC50 of over 10 µM (Trypanosoma cruzi; Vero cells, intracellular amastigotes; day 3 post-infection).
With COc1cc2c3c(c4cc(OC)c(OC)cc4c2cc1OC)CN1CCC[C@@H]1C3 the IC50 was 0.311 ± 0.07 µM (transmissible gastroenteritis virus; viral replication, immunofluorescence; ST cells; 6 h post-infection, pretreated 1 h).
The IC50 of CCCCOc1c(OC)cc(NC(C)CCCNC(=O)C(N)CCCN)c2nc(C(C)(C)C)ccc12 (stereo not drawn) is reported as over 20 µg/mL (Staphylococcus aureus; bacterial growth; MRSA ATCC 33591).
N=C(N)NCCCCCCCCCCNC(=N)N gave an IC50 of 0.027 µM (Plasmodium falciparum; parasite proliferation, SYBR Green; 3D7; 72 h).
O=C(O)[C@H]1O[C@@H](Oc2cc3oc(-c4ccc(O)cc4)cc(=O)c3c(O)c2O)[C@H](O)[C@@H](O)[C@@H]1O gave an IC50 of 63.3 µM (Betacoronavirus 1; viral replication; HRT-18, OC43; 24 h).
For CC[C@]1(CO)O[C@@H](n2cnc3c(=O)[nH]c(N)nc32)C[C@@H]1O, the IC50 was 0.0056 µM (Human immunodeficiency virus 1; cytopathic effect, MTT; MT4).
Nc1nc(O)c2ncn(COC(CO)CO)c2n1 gave an IC50 of 2 ± 0.3 µM (human cytomegalovirus; viral replication, titre reduction; HEL fibroblasts, Towne).
CCCCCCCCCCCCCCC[C@@H](O)C[N+](C)(C)CCO has an IC50 of 4.27 µM (Candida albicans; biofilm formation, XTT; SC5314; 24 h, 37 °C).
The IC50 of C[C@@H]1CC[C@H]2[C@@H](C)C(=O)O[C@@H]3O[C@@]4(C)CC[C@@H]1[C@]32OO4 is reported as 1.49 ± 0.94 µM (Leishmania tarentolae; viability, resazurin; promastigotes, Schneider's medium; 48 h, 26 °C, added: 6 µM hemin).
CC(=NNC(=S)N1CCC1)c1ccccn1 has an IC50 of 2.3 µM (Candida albicans; biofilm formation, XTT; SC5314; 24 h, 37 °C).
With CCCCCCC(C)CC1=C(O)C(=O)c2c(C)cccc2C1=O (stereo not drawn) the IC50 was 0.246 µM (Plasmodium berghei; parasite growth, luciferase; Huh-7; 48 h, liver stage).
`meglumine antimoniate` has an IC50 of 30.4 ± 6.1 µM (Leishmania braziliensis; intracellular amastigotes).
The IC50 of CCCCCOc1c(OC)cc(NC(C)CCCNC(=O)C(N)CCCNC(=N)N)c2nc(C(C)(C)C)ccc12 (stereo not drawn) is reported as 7.27 µg/mL (Staphylococcus aureus; microbial growth; ATCC33591 MRSA; drug-resistant strain).
NC(=O)c1ncn([C@@H]2O[C@H](CO)[C@@H](O)[C@H]2O)n1 gave an IC50 of 73.5 µM (Norwalk virus; viral replication, inhibitor; RAW264.7).
The IC50 of O=c1c(O)c(-c2ccc(O)c(O)c2)oc2cc(O)cc(O)c12 is reported as 3.2 ± 0.8 µM (human cytomegalovirus; viral replication, titre reduction; HEL fibroblasts, Towne).
The IC50 of Nc1cccc(S(N)(=O)=O)c1 is reported as 3.45 µM (Candida albicans; biofilm formation, XTT; SC5314; 24 h, 37 °C).
The IC50 of CCCCCCC(C)CC1=C(O)C(=O)c2ccccc2C1=O (stereo not drawn) is reported as 0.214 µM (Plasmodium falciparum; parasite growth, [3H]hypoxanthine incorporation; W2 chloroquine-resistant, human erythrocytes).
CC[C@]1(CO)O[C@@H](n2cnc3c(N)nc(N)nc32)C[C@@H]1O gave an IC50 of 0.0089 µM (Human immunodeficiency virus 1; cytopathic effect, MTT; MT4).
CC[C@H](C)[C@H](NC(=O)[C@H]1O[C@@H](O[C@H]2[C@@H](O[C@H]3CC[C@]4(C)[C@H]5C(=O)C=C6[C@@H]7C[C@@](C)(C(=O)N[C@H](C(=O)O)[C@@H](C)CC)CC[C@]7(C)CC[C@@]6(C)[C@]5(C)CC[C@H]4C3(C)C)O[C@H](C(=O)N[C@H](C(=O)O)[C@@H](C)CC)[C@@H](O)[C@@H]2O)[C@H](O)[C@@H](O)[C@@H]1O)C(=O)O has an IC50 of 1.2 to 1.3 µM (Dengue virus; viral replication, imaging; Vero C1008, DENV2).
O=c1cc(-c2ccccc2)oc2cc(O)c(O)c(O)c12 has an IC50 of 1.2 ± 0.8 µM (human cytomegalovirus; viral replication, titre reduction; HEL fibroblasts, Towne).
For CCCCCCCCOc1c(OC)cc(NC(C)CCCNC(=O)C2CCCN2)c2nc(C(C)(C)C)ccc12 (stereo not drawn), the IC50 was 5.49 µg/mL (Staphylococcus aureus; microbial growth; ATCC33591 MRSA; drug-resistant strain).
C[C@]12CC[C@H](O)C[C@H]1CC[C@@H]1[C@@H]2CC[C@]2(C)[C@@H](C3=CC(=O)OC3)CC[C@]12O gave an IC50 of 0.622 ± 0.057 µM (transmissible gastroenteritis virus; viral replication, immunofluorescence; ST cells; 6 h post-infection, pretreated 1 h).
CCCCCCCOc1c(OC)cc(NC(C)CCCN)c2nc(C(C)(C)C)cc(C)c12 (stereo not drawn) has an IC50 of 1.38 µg/mL (Staphylococcus aureus; microbial growth; ATCC33591 MRSA; drug-resistant strain).
With O=C(O)[C@H]1O[C@@H](Oc2cc3oc(-c4ccccc4)cc(=O)c3c(O)c2O)[C@H](O)[C@@H](O)[C@@H]1O the IC50 was 15 ± 0.5 µM (human cytomegalovirus; viral replication, titre reduction; HEL fibroblasts, Towne).
CCCCCCCCOc1c(OC)cc(NC(C)CCCN)c2nc(C(C)(C)C)ccc12 (stereo not drawn) gave an IC50 of 2.85 µg/mL (Staphylococcus aureus; microbial growth; ATCC33591 MRSA; drug-resistant strain).
The IC50 of O=C(Cn1cncn1)c1ccc(-c2ccccc2)cc1 is reported as 4 to 60 µM (Trypanosoma cruzi; parasite growth; Tulahuen C4 amastigotes).
CCCCCOc1c(OC)cc(NC(C)CCCN)c2nc(C(C)(C)C)cc(C)c12 (stereo not drawn) has an IC50 of 10.5 µg/mL (Staphylococcus aureus; microbial growth; ATCC33591 MRSA; drug-resistant strain).
O=Cc1cn(Cc2ccc(F)cc2)c2ccc([N+](=O)[O-])cc12 has an IC50 of 22.4 ± 5.03 µM (Trypanosoma brucei gambiense; trypomastigotes, IL1922).
CCCCCCOc1c(OC)cc(NC(C)CCCNC(=O)C(N)Cc2cc3ccccc3[nH]2)c2nc(C(C)(C)C)ccc12 (stereo not drawn) gave an IC50 of 5.43 µg/mL (Staphylococcus aureus; microbial growth; ATCC33591 MRSA; drug-resistant strain).
CC(O)CC(C)(C)N.Oc1c(Cl)c(Cl)c(Cl)c(Cl)c1Cl has an IC50 of 3.29 µM (Candida albicans; biofilm formation, XTT; SC5314; 24 h, 37 °C).
With CCCCCCCOc1c(OC)cc(NC(C)CCCNC(=O)C(N)Cc2ccccc2)c2nc(C(C)(C)C)ccc12 (stereo not drawn) the IC50 was 4.33 µg/mL (Staphylococcus aureus; microbial growth; ATCC33591 MRSA; drug-resistant strain).
The IC50 of COc1cc(-c2oc3cc(O)cc(O)c3c(=O)c2O)ccc1O is reported as 1.77 µM (Human immunodeficiency virus 1; viral replication; TZM-bl, BAL; 48 h).

Excerpt of the above:
With O=C(O)[C@H]1O[C@@H](Oc2cc3oc(-c4ccccc4)cc(=O)c3c(O)c2O)[C@H](O)[C@@H](O)[C@@H]1O the IC50 was 15 ± 0.5 µM (human cytomegalovirus; viral replication, titre reduction; HEL fibroblasts, Towne).
CCCCCCCCOc1c(OC)cc(NC(C)CCCN)c2nc(C(C)(C)C)ccc12 (stereo not drawn) gave an IC50 of 2.85 µg/mL (Staphylococcus aureus; microbial growth; ATCC33591 MRSA; drug-resistant strain).
The IC50 of O=C(Cn1cncn1)c1ccc(-c2ccccc2)cc1 is reported as 4 to 60 µM (Trypanosoma cruzi; parasite growth; Tulahuen C4 amastigotes).
